Results pooled from the literature.
Each numbered part is a random draw from the data of one study; scales do not carry over between parts. Several values in a cell are separate wells, animals, samples, runs or records. Positions count from the first letter of the parent shown.
Chain of UniProt P53355 (whole entry, looked up): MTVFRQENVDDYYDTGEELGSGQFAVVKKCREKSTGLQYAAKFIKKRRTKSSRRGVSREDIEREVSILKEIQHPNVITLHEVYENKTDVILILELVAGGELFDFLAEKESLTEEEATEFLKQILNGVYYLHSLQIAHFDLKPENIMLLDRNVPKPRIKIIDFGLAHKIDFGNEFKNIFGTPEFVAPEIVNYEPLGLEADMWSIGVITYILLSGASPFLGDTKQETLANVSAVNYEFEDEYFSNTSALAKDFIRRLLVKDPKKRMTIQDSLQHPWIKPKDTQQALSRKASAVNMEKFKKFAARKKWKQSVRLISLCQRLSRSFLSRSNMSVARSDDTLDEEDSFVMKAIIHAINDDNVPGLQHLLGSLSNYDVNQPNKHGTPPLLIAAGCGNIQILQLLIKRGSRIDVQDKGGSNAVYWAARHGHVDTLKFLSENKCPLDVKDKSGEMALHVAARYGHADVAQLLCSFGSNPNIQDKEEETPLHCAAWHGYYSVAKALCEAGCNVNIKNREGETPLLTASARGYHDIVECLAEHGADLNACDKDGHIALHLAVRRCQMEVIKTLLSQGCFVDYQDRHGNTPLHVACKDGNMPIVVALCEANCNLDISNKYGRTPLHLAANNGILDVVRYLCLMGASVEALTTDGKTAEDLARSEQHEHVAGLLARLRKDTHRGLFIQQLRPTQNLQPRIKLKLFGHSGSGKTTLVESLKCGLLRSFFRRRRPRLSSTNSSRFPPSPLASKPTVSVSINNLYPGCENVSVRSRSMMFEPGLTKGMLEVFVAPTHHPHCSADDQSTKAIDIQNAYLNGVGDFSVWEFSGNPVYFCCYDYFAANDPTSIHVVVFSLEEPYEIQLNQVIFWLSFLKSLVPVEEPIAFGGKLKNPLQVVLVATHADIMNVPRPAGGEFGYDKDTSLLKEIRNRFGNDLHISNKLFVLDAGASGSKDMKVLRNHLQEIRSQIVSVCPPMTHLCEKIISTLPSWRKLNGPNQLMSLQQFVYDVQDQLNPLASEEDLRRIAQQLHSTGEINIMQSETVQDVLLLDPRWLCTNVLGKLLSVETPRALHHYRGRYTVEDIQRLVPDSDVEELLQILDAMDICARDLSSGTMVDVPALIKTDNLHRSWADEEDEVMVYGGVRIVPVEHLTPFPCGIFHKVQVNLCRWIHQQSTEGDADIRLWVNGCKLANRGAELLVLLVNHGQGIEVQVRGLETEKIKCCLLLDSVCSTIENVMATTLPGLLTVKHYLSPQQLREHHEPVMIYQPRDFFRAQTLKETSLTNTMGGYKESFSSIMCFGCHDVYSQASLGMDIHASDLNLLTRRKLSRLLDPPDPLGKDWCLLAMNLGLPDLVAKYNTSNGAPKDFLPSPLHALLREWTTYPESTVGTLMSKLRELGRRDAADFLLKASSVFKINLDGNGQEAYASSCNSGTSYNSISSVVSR
Chain of UniProt P20309 (whole entry, looked up): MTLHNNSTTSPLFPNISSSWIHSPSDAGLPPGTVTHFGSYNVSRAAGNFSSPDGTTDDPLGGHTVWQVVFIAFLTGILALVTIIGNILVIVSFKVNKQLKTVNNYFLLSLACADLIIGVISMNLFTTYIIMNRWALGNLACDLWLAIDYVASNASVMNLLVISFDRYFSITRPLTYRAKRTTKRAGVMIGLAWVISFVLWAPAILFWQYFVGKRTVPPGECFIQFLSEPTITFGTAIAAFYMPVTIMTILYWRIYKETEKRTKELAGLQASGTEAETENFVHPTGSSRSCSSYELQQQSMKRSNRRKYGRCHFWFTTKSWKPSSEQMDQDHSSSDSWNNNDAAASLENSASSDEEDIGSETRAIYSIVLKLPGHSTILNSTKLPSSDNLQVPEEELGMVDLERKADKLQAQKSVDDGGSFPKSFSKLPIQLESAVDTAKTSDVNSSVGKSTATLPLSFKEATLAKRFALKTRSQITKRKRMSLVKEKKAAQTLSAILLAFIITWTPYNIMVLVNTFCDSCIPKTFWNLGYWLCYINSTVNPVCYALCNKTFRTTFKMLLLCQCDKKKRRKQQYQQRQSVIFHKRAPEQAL

Study 1
Target: HLA class I histocompatibility antigen, A alpha chain, allele A*80:01 (Homo sapiens, UniProt P04439)
Effect on: peptide-MHC binding
Form: peptide
Concentration: concentration not given
Sequence	binding
KVRDRNFQL	inactive
MTTTANWLW	inactive
TTEANAGQF	inactive
RMMATKDSF	inactive
STTTCEAGV	inactive
GGRKLKLTK	inactive
PELGAFFAI	inactive
IQNALEKAL	inactive

Study 2
Target: CCND2, cyclin fold, Cln2 fusion (human)
Technique: yeast growth competition, sequencing
Matrix: yeast
Notes: strong parent motif
Baseline: not given
Reading: higher = stronger binding
Starting sequence: viral docking peptide; YKVKRRLVFGADD; partner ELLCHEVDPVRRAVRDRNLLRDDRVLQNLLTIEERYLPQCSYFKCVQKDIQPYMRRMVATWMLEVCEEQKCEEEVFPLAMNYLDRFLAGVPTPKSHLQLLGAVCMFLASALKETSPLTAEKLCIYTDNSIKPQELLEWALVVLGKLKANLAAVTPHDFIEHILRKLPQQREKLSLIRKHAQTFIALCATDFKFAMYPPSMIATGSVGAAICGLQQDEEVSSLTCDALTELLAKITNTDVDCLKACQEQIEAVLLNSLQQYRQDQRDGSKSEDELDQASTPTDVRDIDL
Variant	normalised enrichment score
YKVKRRLVFGNDD [A11N]	1.51
YKVKRRPVFGADD [L7P]	-0.175
YKVIRRLVFGADD [K4I]	-0.0693
YKVKLRLVFGADD [R5L]	-0.0241
YKVKRRLEFGADD [V8E]	1.88
YKVYRRLVFGADD [K4Y]	0.352
YKVKWRLVFGADD [R5W]	-0.161
YKVKRRCVFGADD [L7C]	-0.166

Further values, each from its own experiment
SMILES	tested on	assay	system	setting	how to read	measurement	result
CC(C)(C)c1cc(C=C(C#N)C#N)cc(Br)c1O	HuT78	–	–	2 µM, 48 h	baseline: untreated	viability	138%
[N-]=[N+]=CC(=O)CC[C@H](N)C(=O)O	–	–	mouse, EL4 tumour	intravenous, 1 mg/kg, day 11	–	tumour volume	72 mm3 and 303 mm3 and 0 mm3 and 376 mm3 and 185 mm3 and 72.6 mm3 and 220 mm3
CNCc1ccccc1-c1csc([C@@H](C)Nc2nc(C)nc3cc(OC)c(OC)cc23)c1	CHRM3 (Homo sapiens, UniProt P20309)	cell-free assay	–	10 µM	–	inhibition	56.5%
CCn1cnc2c(Nc3cccc(Cl)c3)nc(N[C@H]3CCCC[C@H]3N)nc21	DAPK1 (Homo sapiens, UniProt P53355)	enzyme activity, inhibitor	–	0.5 µM	baseline: control	remaining activity	79.1%

Some of these lines once more (study 1):
Sequence	binding
PELGAFFAI	inactive
IQNALEKAL	inactive
KVRDRNFQL	inactive
